Published values gathered from unrelated publications.
± marks the error that the study gave.
blaNDM-1: Metallo-beta-lactamase type 2 (blaNDM-1, Klebsiella pneumoniae, UniProt C7C422)
Chain of UniProt C7C422 (whole entry, looked up): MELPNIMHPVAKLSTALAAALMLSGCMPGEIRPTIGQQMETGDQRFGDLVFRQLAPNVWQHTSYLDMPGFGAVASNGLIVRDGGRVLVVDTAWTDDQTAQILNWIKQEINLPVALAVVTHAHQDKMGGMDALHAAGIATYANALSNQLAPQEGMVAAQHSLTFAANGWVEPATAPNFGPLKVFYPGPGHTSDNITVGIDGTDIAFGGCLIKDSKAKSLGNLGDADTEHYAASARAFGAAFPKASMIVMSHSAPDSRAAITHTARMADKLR
Formate-nitrite transporter: Formate-nitrite transporter (Plasmodium falciparum, UniProt O77389)
Chain of UniProt O77389 (whole entry, looked up): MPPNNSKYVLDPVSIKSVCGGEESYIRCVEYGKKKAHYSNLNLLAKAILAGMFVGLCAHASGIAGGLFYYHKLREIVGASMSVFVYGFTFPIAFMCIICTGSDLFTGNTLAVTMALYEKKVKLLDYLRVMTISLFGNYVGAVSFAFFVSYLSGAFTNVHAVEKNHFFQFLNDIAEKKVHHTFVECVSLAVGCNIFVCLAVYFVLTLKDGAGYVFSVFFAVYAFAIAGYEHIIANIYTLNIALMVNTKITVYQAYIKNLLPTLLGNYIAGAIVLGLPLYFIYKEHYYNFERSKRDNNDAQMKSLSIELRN
lasR: Transcriptional activator protein LasR (lasR, Pseudomonas aeruginosa, UniProt P25084)
Chain of UniProt P25084 (whole entry, looked up): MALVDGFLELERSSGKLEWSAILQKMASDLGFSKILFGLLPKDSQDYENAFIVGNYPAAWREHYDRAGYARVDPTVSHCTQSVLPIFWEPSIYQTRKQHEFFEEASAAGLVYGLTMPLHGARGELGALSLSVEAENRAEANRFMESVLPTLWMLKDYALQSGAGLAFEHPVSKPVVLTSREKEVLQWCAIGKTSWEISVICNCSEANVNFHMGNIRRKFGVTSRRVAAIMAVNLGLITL
CXCR4: C-X-C chemokine receptor type 4 (CXCR4, Homo sapiens, UniProt P61073)
Chain of UniProt P61073 (whole entry, looked up): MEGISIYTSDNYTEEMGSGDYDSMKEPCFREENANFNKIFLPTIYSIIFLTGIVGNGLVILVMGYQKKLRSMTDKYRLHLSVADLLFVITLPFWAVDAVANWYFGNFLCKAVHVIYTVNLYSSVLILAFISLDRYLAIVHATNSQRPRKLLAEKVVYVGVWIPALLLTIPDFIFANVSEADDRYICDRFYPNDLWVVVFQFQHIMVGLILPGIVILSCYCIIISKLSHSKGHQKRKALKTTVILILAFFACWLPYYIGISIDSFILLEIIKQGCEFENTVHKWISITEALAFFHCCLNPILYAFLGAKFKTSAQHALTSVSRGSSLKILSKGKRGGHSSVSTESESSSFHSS
SIRT5: NAD-dependent protein deacylase sirtuin-5, mitochondrial (SIRT5, Homo sapiens, UniProt Q9NXA8)
Chain of UniProt Q9NXA8 (whole entry, looked up): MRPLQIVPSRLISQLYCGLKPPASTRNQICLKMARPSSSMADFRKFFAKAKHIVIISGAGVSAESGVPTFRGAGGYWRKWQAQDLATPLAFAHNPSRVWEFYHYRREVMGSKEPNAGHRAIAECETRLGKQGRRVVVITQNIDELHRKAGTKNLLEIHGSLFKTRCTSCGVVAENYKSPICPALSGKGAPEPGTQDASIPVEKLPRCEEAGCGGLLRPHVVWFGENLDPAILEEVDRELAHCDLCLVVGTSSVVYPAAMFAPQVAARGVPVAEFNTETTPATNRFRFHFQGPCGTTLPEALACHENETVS
Chain of UniProt Q99436 (whole entry, looked up): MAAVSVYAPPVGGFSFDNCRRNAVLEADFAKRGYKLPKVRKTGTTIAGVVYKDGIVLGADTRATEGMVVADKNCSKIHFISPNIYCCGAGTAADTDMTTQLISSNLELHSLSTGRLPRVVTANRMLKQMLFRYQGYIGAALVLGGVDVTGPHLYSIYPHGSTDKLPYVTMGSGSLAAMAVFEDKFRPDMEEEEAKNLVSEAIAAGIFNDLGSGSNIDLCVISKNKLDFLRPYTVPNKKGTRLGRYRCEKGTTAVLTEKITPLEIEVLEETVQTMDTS
Chain of UniProt Q7Z3E1 (whole entry, looked up): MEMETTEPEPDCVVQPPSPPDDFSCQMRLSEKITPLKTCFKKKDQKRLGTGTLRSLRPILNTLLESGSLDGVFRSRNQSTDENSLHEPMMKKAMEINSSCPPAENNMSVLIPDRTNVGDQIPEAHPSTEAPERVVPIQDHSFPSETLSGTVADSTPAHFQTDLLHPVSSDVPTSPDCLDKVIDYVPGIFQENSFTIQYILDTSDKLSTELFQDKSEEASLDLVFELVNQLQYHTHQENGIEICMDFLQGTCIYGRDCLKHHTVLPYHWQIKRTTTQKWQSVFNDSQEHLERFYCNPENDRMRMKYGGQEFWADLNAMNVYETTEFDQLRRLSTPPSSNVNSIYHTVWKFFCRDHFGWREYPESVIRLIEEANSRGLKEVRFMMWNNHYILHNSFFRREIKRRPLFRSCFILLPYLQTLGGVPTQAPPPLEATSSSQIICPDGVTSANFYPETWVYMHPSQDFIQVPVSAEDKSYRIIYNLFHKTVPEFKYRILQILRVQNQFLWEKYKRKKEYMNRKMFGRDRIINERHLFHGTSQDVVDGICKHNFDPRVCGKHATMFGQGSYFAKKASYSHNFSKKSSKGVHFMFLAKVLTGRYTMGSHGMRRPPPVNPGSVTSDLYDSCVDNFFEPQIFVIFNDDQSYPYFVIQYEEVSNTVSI
Chain of UniProt P40261 (whole entry, looked up): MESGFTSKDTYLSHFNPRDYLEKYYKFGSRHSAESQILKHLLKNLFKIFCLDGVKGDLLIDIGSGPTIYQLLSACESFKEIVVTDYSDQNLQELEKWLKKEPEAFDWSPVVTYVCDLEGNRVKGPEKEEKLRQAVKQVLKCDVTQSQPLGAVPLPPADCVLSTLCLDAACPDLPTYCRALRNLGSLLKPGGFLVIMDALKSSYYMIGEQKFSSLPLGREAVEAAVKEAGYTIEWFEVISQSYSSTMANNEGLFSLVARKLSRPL
Chain of UniProt P33261 (whole entry, looked up): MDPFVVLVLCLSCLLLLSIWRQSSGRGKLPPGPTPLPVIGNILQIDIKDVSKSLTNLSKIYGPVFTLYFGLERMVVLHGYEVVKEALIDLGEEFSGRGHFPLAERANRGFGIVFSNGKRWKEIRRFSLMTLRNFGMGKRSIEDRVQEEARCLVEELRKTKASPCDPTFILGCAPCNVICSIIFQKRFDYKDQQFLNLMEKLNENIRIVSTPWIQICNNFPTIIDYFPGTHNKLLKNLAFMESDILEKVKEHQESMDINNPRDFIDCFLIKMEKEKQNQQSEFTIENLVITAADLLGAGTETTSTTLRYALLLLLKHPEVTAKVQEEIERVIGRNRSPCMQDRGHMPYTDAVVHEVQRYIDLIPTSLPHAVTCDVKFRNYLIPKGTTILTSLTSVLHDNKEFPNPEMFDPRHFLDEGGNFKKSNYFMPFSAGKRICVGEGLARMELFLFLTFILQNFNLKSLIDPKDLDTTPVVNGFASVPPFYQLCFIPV
Chain of UniProt Q8IXJ6 (whole entry, looked up): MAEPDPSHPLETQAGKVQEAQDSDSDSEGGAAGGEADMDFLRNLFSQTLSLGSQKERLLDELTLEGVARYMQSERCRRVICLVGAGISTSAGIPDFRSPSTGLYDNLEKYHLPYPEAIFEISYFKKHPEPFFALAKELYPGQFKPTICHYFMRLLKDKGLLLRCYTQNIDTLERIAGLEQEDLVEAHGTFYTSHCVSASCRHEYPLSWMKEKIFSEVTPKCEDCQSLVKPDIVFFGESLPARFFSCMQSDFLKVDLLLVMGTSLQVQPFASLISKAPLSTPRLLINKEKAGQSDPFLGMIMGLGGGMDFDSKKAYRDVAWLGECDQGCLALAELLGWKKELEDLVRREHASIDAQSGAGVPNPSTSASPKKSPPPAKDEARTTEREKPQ
Chain of UniProt Q13043 (whole entry, looked up): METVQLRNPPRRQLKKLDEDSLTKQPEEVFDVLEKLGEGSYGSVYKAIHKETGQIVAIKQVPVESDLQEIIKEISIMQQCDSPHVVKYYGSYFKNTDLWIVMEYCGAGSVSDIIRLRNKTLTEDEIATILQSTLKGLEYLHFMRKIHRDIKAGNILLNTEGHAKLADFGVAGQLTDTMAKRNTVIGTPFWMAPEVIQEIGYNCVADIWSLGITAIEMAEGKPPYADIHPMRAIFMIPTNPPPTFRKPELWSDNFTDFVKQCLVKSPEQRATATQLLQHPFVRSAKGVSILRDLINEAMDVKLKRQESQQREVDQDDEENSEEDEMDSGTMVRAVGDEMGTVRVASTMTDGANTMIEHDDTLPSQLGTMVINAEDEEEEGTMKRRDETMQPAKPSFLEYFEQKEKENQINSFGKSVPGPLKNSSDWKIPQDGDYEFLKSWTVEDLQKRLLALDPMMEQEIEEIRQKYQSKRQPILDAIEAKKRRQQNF
Chain of UniProt Q2FDS6 (whole entry, looked up): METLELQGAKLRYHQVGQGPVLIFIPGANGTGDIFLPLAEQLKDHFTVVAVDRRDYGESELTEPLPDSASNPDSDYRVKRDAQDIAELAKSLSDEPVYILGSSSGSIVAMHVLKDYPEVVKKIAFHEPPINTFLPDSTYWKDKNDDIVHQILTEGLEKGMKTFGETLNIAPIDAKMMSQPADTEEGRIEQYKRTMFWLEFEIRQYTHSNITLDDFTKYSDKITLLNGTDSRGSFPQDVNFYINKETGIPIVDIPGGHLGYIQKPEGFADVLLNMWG
Chain of UniProt P49720 (whole entry, looked up): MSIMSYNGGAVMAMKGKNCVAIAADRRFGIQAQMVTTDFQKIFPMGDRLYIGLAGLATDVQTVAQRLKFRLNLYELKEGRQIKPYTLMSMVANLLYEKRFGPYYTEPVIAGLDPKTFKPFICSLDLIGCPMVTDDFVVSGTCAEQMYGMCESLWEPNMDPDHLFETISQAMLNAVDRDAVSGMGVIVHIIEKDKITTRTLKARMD
Chain of UniProt P52699 (whole entry, looked up): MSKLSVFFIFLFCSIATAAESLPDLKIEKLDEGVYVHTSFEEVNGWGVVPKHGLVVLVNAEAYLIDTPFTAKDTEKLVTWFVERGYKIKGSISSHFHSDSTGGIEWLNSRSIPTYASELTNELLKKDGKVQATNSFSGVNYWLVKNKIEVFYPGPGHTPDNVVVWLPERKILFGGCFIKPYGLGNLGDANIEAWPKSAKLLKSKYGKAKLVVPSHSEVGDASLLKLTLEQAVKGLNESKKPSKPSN

| SMILES | target | test | system | setting | IC50 |
| --- | --- | --- | --- | --- | --- |
| CC[C@H](C)[C@H](NC(=O)[C@@H]1CCCN1C(=O)CNC(=O)[C@H](Cc1ccccc1)NC(=O)[C@@H]1CCCN1C(=O)[C@H](CC(=O)O)NC(=O)[C@H](Cc1ccccc1)NC(=O)[C@H](CCCNC(=N)N)NC(=O)[C@H](C)NC(=O)CNC(=O)[C@@H]1CCCN1C(=O)[C@@H]1CCCN1C(=O)[C@@H](NC(=O)[C@H](C)NC(=O)CNC(=O)[C@@H]1CCCN1C(=O)[C@@H]1CCCN1C(=O)[C@@H](N)CC(C)C)C(C)C)C(=O)NCC(=O)N[C@H](C(=O)O)[C@@H](C)O | Proteasome subunit beta type-3/PSMB7 (Homo sapiens, UniProt P49720+Q99436) | trypsin-like activity, inhibitor | human proteasome 10 nM | together with: Boc-LRR-AMC | < 10 µM |
| NC(=O)c1ccc(N)nc1 | NNMT (Homo sapiens, UniProt P40261) | enzyme activity, inhibitor | – | – | 6.31 µM |
| Cc1ccc2c(n1)c(-c1cccc(S(C)(=O)=O)c1)c(C)n2C/C(F)=C/CN | CYP2C19 (Homo sapiens, UniProt P33261) | enzyme activity, inhibitor | human, liver microsomes | – | 0.35 µM |
| COc1cc(C[C@H](C)[C@H](C)Cc2ccc3c(c2)OCO3)ccc1O | CES1 (Homo sapiens, UniProt P23141) | enzyme activity, inhibitor | – | – | 0.75 µM |
| CC[C@H](C)[C@@H]1NC(=O)[C@@H]2CCCN2C(=O)[C@@H](CS)NC(=O)[C@H](CC(C)C)NC(=O)[C@@H](CCCNC(=N)N)NC(=O)[C@@H](CCCNC(=N)N)NC(=O)C(C)(C)NC(=O)[C@@H]2CCCN2C1=O | blaNDM-1 | enzyme activity, inhibitor, absorbance | – | – | 2.2 µM |
| C#CCNC(=O)c1ccc(S(=O)(=O)N[C@@H](CCCCNC(C)=S)C(=O)N[C@@H](CCCNC(=N)N)C(=O)N[C@@H](CC2CCCCC2)C(=O)N[C@H](CCCCN)C(=O)N[C@@H](CC2CCCCC2)C(=O)N[C@H](CCCNC(=N)N)C(=O)N[C@@H](CC2CCCCC2)C(N)=O)cc1 | SIRT2 (Homo sapiens, UniProt Q8IXJ6) | enzyme activity, inhibitor, fluorescence | – | – | 2.44 µM |
| COCCCNc1ccc(C(=O)C=C(O)C(F)(F)C(F)(F)F)cn1 | Formate-nitrite transporter | L-lactate transport, inhibitor, fluorescence assay in yeast | – | together with: 1 mM L-lactate | 0.059 µM |
| CN(C(=O)c1ccn2ncc(-c3ccc(C(N)=O)cc3)c2c1)c1ccc(C#N)cn1 | Phosphatidylinositol 4-kinase (Cryptosporidium parvum, UniProt Q5CVD3) | enzyme activity, inhibitor, Transcreener ADP2 FP | – | – | 0.0137 ± 0.0065 µM |
| CCCCCC(=O)CC(=O)N[C@H]1CCOC1=O | lasR | reporter gene, antagonist | Escherichia coli, JLD271 with LasR plasmid | together with: OdDHL 5 nM | 0.2 µM |
| CN1C(=O)[C@@H](Cc2ccc(O)cc2)NC(=O)CNC(=O)[C@H](Cc2ccc3ccccc3c2)NC(=O)[C@H](CCCNC(=N)N)NC(=O)[C@H]1CCCNC(=O)c1ccc(NC(=O)CCNC(=O)CN2CCN(CC(=O)O)CCN(CC(=O)O)CCN(CC(=O)O)CC2)cc1 | CXCR4 | – | – | – | 0.0417 ± 0.0155 µM |
| O=C(c1cc(Cc2n[nH]c(=O)c3ccccc23)ccc1F)N1CC(CNC2CC2)C1 | TIPARP (Homo sapiens, UniProt Q7Z3E1) | enzyme activity, inhibitor | – | – | > 10 µM |
| CCN(C)C(=O)Oc1ccccc1/C=C1\Cc2cc(OC)c(OC)cc2C1=O | DPP4 (Homo sapiens, UniProt P27487) | enzyme activity, inhibitor | human serum | together with: GP-BAN substrate | > 10 µM |
| O=C(Cc1ccccc1)N[C@H](C(=O)O)[C@@H]1N=C(C(=O)O)C(CS[C@H](Cc2ccccc2)C(=O)O)CS1 (stereo partly drawn) | Metallo-beta-lactamase type 2 (Serratia marcescens, UniProt P52699) | enzyme activity, inhibitor | – | together with: nitrocefin | 0.59 ± 0.06 µM |
| OC[C@@H]1[C@@H](O)[C@H](O)[C@@H](O)[C@H]2N[C@@H]12 | Oligosaccharide 4-alpha-D-glucosyltransferase (agd31B, Cellvibrio japonicus, UniProt B3PEE6) | enzyme activity, inhibitor | – | 30 min preincubation, pH 6.5, 25 °C | 1.42 ± 0.06 µM |
| CCN(N=Cc1cnc2ccc(Br)cn12)S(=O)(=O)c1cc([N+](=O)[O-])ccc1C | PIK3CA (Homo sapiens, UniProt P42336, H855E) | enzyme activity, inhibitor | – | – | 0.166 µM |
| O=C(NCCCC[C@H](NS(=O)(=O)c1cccc(F)c1)C(=O)N[C@@H](Cc1c[nH]c2ccccc12)C(=O)NC1CCC1)c1cncc(OS(=O)(=O)F)c1 | SIRT5 | inhibitor, fluorogenic | – | 4 h preincubation, His-tagged enzyme 150 nM, together with: NAD+ 500 µM | 20 ± 13 µM |
| CC(C)C[C@@H](N)C(=O)NCC(=O)N[C@H](C)C(=O)N[C@H](CO)C(=O)N[C@H](Cc1c[nH]c2ccccc12)C(=O)N[C@H](Cc1c[nH]cn1)C(=O)N[C@H](CCCNC(=N)N)C(=O)N1CCC[C@@H]1C(=O)N[C@H](CC(=O)O)C(=O)N[C@H](CCCCN)C(=O)N[C@H](CCCCN)C(=O)N[C@H](CCCNC(=N)N)C(=O)NCCCCCC(=O)N[C@H](CCCCN)C(=O)N[C@H](CCCNC(=N)N)C(=O)N[C@H](CCCCN)C(=O)N[C@H](CCC(N)=O)C(=O)N[C@H](CCCNC(=N)N)C(=O)NCC(=O)N1CCC[C@@H]1C(=O)NCC(=O)N[C@H](CCCNC(=N)N)C(=O)N[C@H](C)C(=O)N[C@H](Cc1ccccc1)C(N)=O | CXCR4 | antagonist | – | concentration not given | 0.0434 µM |
| CCNc1ccc(C(=O)C=C(O)C(F)(F)C(F)(F)F)cn1 | Formate-nitrite transporter | L-lactate transport, inhibitor, fluorescence | yeast | pH 6.8, together with: L-lactate 1 mM | 0.039 ± 0.009 µM |

| SMILES | target | test | system | setting | IC50 |
| --- | --- | --- | --- | --- | --- |
| O=C(O)CCn1c(=O)oc2cc(Cl)c(Cl)cc21 | Aurora kinase B (AURKB, Homo sapiens, UniProt Q96GD4) | inhibitor | – | – | > 31.6 µM |
| C=C1NC(=O)c2csc(n2)[C@H]([C@@H](C)O)NC(=O)[C@H](C)NC(=O)[C@H]([C@@H](C)CC)NC(=O)[C@H](CCCNC(=N)N)NC(=O)CNC(=O)[C@H](CCCNC(=N)N)NC(=O)[C@H]([C@@H](C)O)NC(=O)[C@H](CCCNC(=N)N)NC(=O)[C@H]([C@@H](C)CC)NC(=O)[C@H]([C@@H](C)O)NC(=O)[C@H](Cc2c[nH]c3ccccc23)NC(=O)c2ccc(-c3nc(C(=O)OC)cs3)nc2-c2csc1n2 | STK4 (Homo sapiens, UniProt Q13043) | enzyme activity, inhibitor, ADP detection | – | – | 0.12 µM |
| C[C@H](NC(=O)[C@@H](N)CCC(=O)O)C(=O)N[C@@H](Cc1ccc(O)cc1)C(=O)N[C@@H](CCC(N)=O)C(=O)O | MAOA (Homo sapiens, UniProt P21397) | enzyme activity, inhibitor, fluorescence | – | – | 3220 µM |
| CSCC[C@H](NC(=O)[C@@H](N)CCCNC(=N)N)C(=O)N[C@@H](CO)C(=O)N[C@@H](C)C(=O)N1CCC[C@H]1C(=O)N[C@@H](CO)C(=O)N[C@H](C(=O)NCC(=O)NCC(=O)N[C@H](C(=O)O)C(C)C)[C@@H](C)O | HLA class I histocompatibility antigen, A alpha chain, allele A*02:06 (Homo sapiens, UniProt P04439) | binding | – | – | > 38.7 µM |
| CC[C@H](C)[C@@H]1NC(=O)[C@@H]2CCCN2C(=O)[C@@H](CS)NC(=O)[C@H](Cc2ccc(O)cc2)NC(=O)[C@@H](CCCNC(=N)N)NC(=O)[C@@H]([C@H](C)O)NC(=O)[C@H](CCC(=O)O)NC(=O)[C@@H]2CCCN2C1=O | blaNDM-1 | enzyme activity, inhibitor, absorbance | – | – | 7.38 µM |
| CCC(=O)Nc1ccc(C(=O)C=C(O)C(F)(F)C(F)(F)F)cn1 | Formate-nitrite transporter | L-lactate transport, inhibitor, fluorescence | yeast | pH 6.8, together with: L-lactate 1 mM | 0.401 ± 0.06 µM |
| CCOC(=O)C1CCN(C(=O)n2cc[n+](C)c2)CC1 | Uncharacterized hydrolase SAUSA300_2518 (Staphylococcus aureus, UniProt Q2FDS6) | enzyme activity, inhibitor | – | – | > 50 µM |
| CCCC[C@@H]1NC(=O)[C@@H](CCCCN)NC(=O)[C@H]2CCCN2C(=O)[C@H](CCC(=O)O)NC(=O)[C@@H]2C[C@@H](O)CN2C(=O)[C@H](Cc2ccccc2CN)NC(=O)[C@@H]2CCCN2C(=O)[C@@H](CS)NC1=O | blaNDM-1 | enzyme activity, inhibitor, absorbance | – | – | 3.14 µM |
| CC(C)Nc1ccc(C(=O)C=C(O)C(F)(F)C(F)(F)F)cn1 | Formate-nitrite transporter | L-lactate transport, inhibitor, fluorescence | yeast | pH 6.8, together with: L-lactate 1 mM | 0.117 ± 0.008 µM |
| C#CCNC(=O)c1ccc([P+](CCCC(=O)N[C@@H](CCCCNC(=O)c2cncc(OS(=O)(=O)F)c2)C(=O)N[C@@H](CCCNC(=N)N)C(=O)NC2CCC2)(c2ccccc2)c2ccccc2)cc1 | SIRT5 | inhibitor, fluorogenic | – | 0 h preincubation, non-tagged enzyme 150 nM, together with: NAD+ 500 µM | > 200 µM |
| O=C(Nc1ccc(-c2ccccc2)cc1)N[C@H]1[C@H]([C@H](O)[C@H](O)CO)OC(C(=O)O)=C[C@@H]1O | Sialidase-2 (Homo sapiens, UniProt Q9Y3R4) | enzyme activity, inhibitor | – | – | > 500 µM |
| CNc1ccc(C(=O)C=C(O)C(F)(F)C(F)(F)F)cn1 | Formate-nitrite transporter | L-lactate transport, inhibitor, fluorescence | yeast | pH 6.8, together with: L-lactate 1 mM | 0.031 ± 0.005 µM |
| CC[C@H](C)[C@H](NC(=O)[C@H](CCC(=O)O)NC(=O)[C@H](C)NC(=O)[C@@H](NC(=O)[C@H](Cc1c[nH]cn1)NC(=O)[C@H]1CCC[C@@H]1NC(=O)[C@H](CCC(=O)O)NC(=O)[C@H](C)NC(=O)[C@H]1CCC[C@@H]1NC(=O)[C@H](CC(C)C)NC(=O)[C@H](Cc1c[nH]cn1)NC(=O)[C@H](Cc1c[nH]cn1)NC(=O)[C@H]1CCC[C@@H]1NC(=O)[C@H](Cc1ccccc1)NC(=O)[C@H](Cc1ccccc1)NC(=O)[C@H](CCCNC(=N)N)NC(=O)[C@H](CCCNC(=N)N)NC(=O)[C@H](CCCNC(=N)N)NC(=O)[C@H](CC(C)C)NC(=O)[C@H](CC(=O)O)NC(=O)[C@H](CCC(N)=O)NC(=O)[C@@H](NC(=O)[C@H](CO)NC(=O)[C@H](CCCCN)NC(=O)CNC(=O)[C@H](CCCCN)NC(=O)[C@H](CC(=O)O)NC(=O)[C@H](Cc1c[nH]cn1)NC(=O)[C@H](CC(C)C)NC(=O)[C@H](CC(C)C)NC(=O)[C@H](CCC(N)=O)NC(=O)[C@H](Cc1c[nH]cn1)NC(=O)[C@H](CCC(=O)O)NC(=O)[C@H](CO)NC(=O)[C@@H](NC(=O)[C@H](C)N)C(C)C)[C@@H](C)CC)[C@@H](C)O)C(N)=O | PTH1R (Homo sapiens, UniProt Q03431) | ligand displacement, radioligand | – | cell membranes | 0.011 µM |
| CC(C)C[C@H](NC(=O)[C@H](Cc1ccc(CN)cc1)NC(=O)[C@H](Cc1ccccc1)N=[N+]=[N-])C(=O)N[C@@H](CCC1CCCCC1)C(=O)[C@@]1(C)CO1 | PSMB7 (Homo sapiens, UniProt Q99436) | inhibitor, competitive ABPP | Raji cell lysate | constitutive proteasome β2c | 0.0389 µM |
| N=C(N)NCCC[C@H](NC(=O)[C@H](CCCCNC(=O)c1cncc(OS(=O)(=O)F)c1)NS(=O)(=O)c1cccc(F)c1)C(=O)NC1CCC1 | SIRT5 | inhibitor, fluorogenic | – | pre-incubation 4 h, together with: NAD+ 500 µM | 36 ± 5.7 µM |
| O=C(CCc1ccc(C(F)(F)F)cc1)N[C@H]1CCOC1=O | lasR | reporter gene, antagonist | Escherichia coli, JLD271 with LasR plasmid | together with: OdDHL 2 nM | no inhibition |
| CC[C@H](C)[C@@H]1NC(=O)[C@@H]2CCCN2C(=O)[C@@H](CS)NC(=O)[C@H](Cc2ccc(O)cc2)NC(=O)[C@@H](CCCNC(=N)N)NC(=O)[C@@H](CCCNC(=N)N)NC(=O)[C@H](CCC(=O)O)NC(=O)[C@@H]2CCCN2C1=O | blaNDM-1 | enzyme activity, inhibitor, absorbance | – | – | 2.93 µM |
| COc1c(Cl)cnn(-c2cccc(C)c2)c1=O | Disulfide bond formation protein B (Escherichia coli, UniProt P0A6M2, C49V/C8A) | enzyme activity, inhibitor | – | – | 4.87 to 6.12 µM |
